Measured values collected from several papers.
Compare with care: the assays were run in different laboratories. Numbers after ± are the reported error.
Cell line: PC-3

Compound	test	setting	IC50
Cc1ccc(-c2noc(-c3cccs3)c2C(F)(F)F)cc1	cell growth or viability, MTT	48 h	28.7 µM
C[S+](C)([O-])[Pt-2]([Cl])([Cl])[N+](=Cc1ccc[nH]1)Cc1ccccc1	cell growth or viability, MTT	24 h	29.5 µg/mL
CC(C)=CCC1=C([O-])C(=O)c2ccccc2C1=O.CC(C)=CCC1=C([O-])C(=O)c2ccccc2C1=O.[Cu+2].c1ccc(-c2ccccn2)nc1	cell viability, MTT	24 h	34.1 ± 0.6 µM
COC(=O)CNC(=O)CNC(=O)CNC(=O)COc1ccc2c(C)cc(=O)oc2c1	cell growth or viability, MTT	–	115 µM
CC(=O)O[C@@H]1CC[C@@]2(C)[C@@H](CC[C@]3(C)[C@@H]2C(=O)C=C2[C@@H]4[C@@H](C)[C@H](C)CC[C@]4(C)CC[C@]23C)[C@@]1(C)C(=O)NCCNC(=O)CCCCBr	cell growth or viability, MTT	48 h	10.5 µM
CCN1CCC2(CC1)C/C(=N\NC(=O)Nc1ccc(Cl)cc1)c1ccccc1O2	cell growth or viability, MTT	48 h	27.2 µM
CC(=O)[O][Pt]([Cl])([Cl])[O]C(=O)CCCc1ccccc1.N.N	cell growth or viability	–	4.34 µM
CC(=O)O[C@@H]1CC[C@@]2(C)[C@@H](CC[C@]3(C)[C@@H]2C(=O)C=C2[C@@H]4[C@@H](C)[C@H](C)CC[C@]4(C)CC[C@]23C)[C@@]1(C)C(=O)NCCNC(=O)CCCCC[P+](c1ccccc1)(c1ccccc1)c1ccccc1	cell growth or viability, MTT	48 h	21.5 µM
O=C1c2ccc(O)cc2OC1(O)Cc1ccc(O)c(O)c1 (stereo not shown)	cell growth or viability, MTT	72 h	> 400 µM
FC(F)(F)c1c(-c2ccc(Br)cc2)noc1-c1cccs1	cell growth or viability, MTT	48 h	30.9 µM
CC(=O)[O][Pt]([Cl])([Cl])[O]C(C)=O.N.N	cell growth or viability	–	10.1 µM
CCOC(=O)C[C@H]1Oc2ccccc2C(=O)[C@]1(C)[N+](=O)[O-]	cell growth or viability, SRB	96 h	> 50 µM
C=CC(OC(C)=O)c1ccccc1 (stereo not shown)	MTT	24 h	> 50 µM
O=C(/C=C/c1ccc2c(c1)C(=O)N(CCCc1ccccc1)CC2)NO	cell growth, SRB	72 h	1.94 ± 0.24 µM
N=C(N)Nc1nc2ccccc2s1	cell growth or viability, MTT	24 h	446 µM
COC(=O)[C@H]1CC[C@H](NC(=O)C[C@H]2Oc3ccccc3C(=O)[C@]2(C)[N+](=O)[O-])CC1	cell growth or viability, SRB	96 h	> 50 µM
CN1CCCC1CCO/N=C1/C=C2CCC3C(CC[C@]4(C)/C(=C/c5ccccn5)CCC34)[C@@]2(C)CC1 (stereo partly shown)	cell growth or viability, MTT	72 h	> 100 µM

Compound	test	setting	IC50
C=CCc1ccc(OCc2nnc(SCC(=O)Nc3ccccc3Cl)o2)c(OC)c1	cell growth or viability, MTT	72 h	11.2 µM
CN(C)CCCO/N=C1/C=C2CCC3C(CC[C@]4(C)/C(=C/c5ccccn5)CCC34)[C@@]2(C)CC1 (stereo partly shown)	cell growth or viability, MTT	72 h	> 100 µM
C=CCc1ccc(OCc2nnc(SCC(=O)Nc3ccc(Br)cc3)o2)c(OC)c1	cell growth or viability, MTT	72 h	16.7 µM
CCCC(CCC)C(=O)[O][Pt]([Cl])([Cl])[O]C(=O)C(CCC)CCC.N.N	cell growth or viability	–	2.13 µM
C[C@H]1[C@H](C)CC[C@]2(C)CC[C@]3(C)C(=CC(=O)[C@@H]4[C@@]5(C)CC[C@@H](O)[C@](C)(C(=O)NCCNC(=O)C6CCCCC6)[C@@H]5CC[C@]43C)[C@H]12	cell growth or viability, MTT	48 h	25.8 µM
CCN1CCC2(CC1)C/C(=N\NC(=O)Nc1ccc([N+](=O)[O-])cc1)c1ccccc1O2	cell growth or viability, MTT	48 h	11.3 µM
O=C1c2ccc3c4cccc5c(N6CCNCC6)ccc(c6ccc(c2c36)C(=O)N1CCN1CCCCC1)c54	cell growth or viability, SRB	72 h	42.9 µM
CC(=O)O[C@@H]1CC[C@@]2(C)[C@@H](CC[C@]3(C)[C@@H]2C(=O)C=C2[C@@H]4[C@@H](C)[C@H](C)CC[C@]4(C)CC[C@]23C)[C@@]1(C)C(=O)O	cell growth or viability, MTT	48 h	27.9 µM
C[C@]1([N+](=O)[O-])C(=O)c2ccccc2O[C@@H]1CC(=O)OC12CC3CC(CC(C3)C1)C2	cell growth or viability, SRB	96 h	10.6 µM
CC(=O)O[C@@H]1CC[C@@]2(C)[C@@H](CC[C@]3(C)[C@@H]2C(=O)C=C2[C@@H]4[C@@H](C)[C@H](C)CC[C@]4(C)CC[C@]23C)[C@@]1(C)C(=O)NCCNC(=O)CCCCCBr	cell growth or viability, MTT	48 h	9.33 µM
C=CCc1ccc(OC(C)=O)c(OC)c1	MTT	24 h	> 50 µM
CCCCn1cc(C(=O)O)c(=O)c2cc(F)c(Nc3ccc(OC)cc3)c([N+](=O)[O-])c21	cell growth or viability, SRB	72 h	> 200 µg/mL
CCCCCC(=O)NCCNC(=O)[C@]1(C)[C@@H]2CC[C@]3(C)[C@H](C(=O)C=C4[C@@H]5[C@@H](C)[C@H](C)CC[C@]5(C)CC[C@]43C)[C@@]2(C)CC[C@H]1OC(C)=O	cell growth or viability, MTT	48 h	17.6 µM
O=C(O)c1ccc([P+]([Au-][Cl])(c2ccccc2)c2ccccc2)cc1	cell viability, XTT	24 h	> 200 µM
O=C1c2ccc3c4cccc5cccc(c6ccc(c2c36)C(=O)N1CCN1CCCCC1)c54	cell growth or viability, SRB	72 h	40.1 µM
CC(=O)O[C@@H]1CC[C@@]2(C)[C@@H](CC[C@]3(C)[C@@H]2C(=O)C=C2[C@@H]4[C@@H](C)[C@H](C)CC[C@]4(C)CC[C@]23C)[C@@]1(C)C(=O)NCCNC(=O)CCCCCCCBr	cell growth or viability, MTT	48 h	14.1 µM
CC1(C)[C@@H](O)CC[C@]2(C)[C@H]3C(=O)C=C4[C@@H]5C[C@@](C)(C(=O)O)CC[C@]5(C)CC[C@@]4(C)[C@]3(C)CC[C@@H]12	cell growth or viability, MTT	–	> 40 µM

For quick reference, copied from above:
Compound	test	setting	IC50
CN(C)CCCO/N=C1/C=C2CCC3C(CC[C@]4(C)/C(=C/c5ccccn5)CCC34)[C@@]2(C)CC1 (stereo partly shown)	cell growth or viability, MTT	72 h	> 100 µM
CCOC(=O)C[C@H]1Oc2ccccc2C(=O)[C@]1(C)[N+](=O)[O-]	cell growth or viability, SRB	96 h	> 50 µM
